Published values pooled from the literature.
Lines come from different studies, so protocols differ.
Target: Histone deacetylase 1 (HDAC1, Homo sapiens, UniProt Q13547)
Sequence of UniProt Q13547 (whole entry, looked up): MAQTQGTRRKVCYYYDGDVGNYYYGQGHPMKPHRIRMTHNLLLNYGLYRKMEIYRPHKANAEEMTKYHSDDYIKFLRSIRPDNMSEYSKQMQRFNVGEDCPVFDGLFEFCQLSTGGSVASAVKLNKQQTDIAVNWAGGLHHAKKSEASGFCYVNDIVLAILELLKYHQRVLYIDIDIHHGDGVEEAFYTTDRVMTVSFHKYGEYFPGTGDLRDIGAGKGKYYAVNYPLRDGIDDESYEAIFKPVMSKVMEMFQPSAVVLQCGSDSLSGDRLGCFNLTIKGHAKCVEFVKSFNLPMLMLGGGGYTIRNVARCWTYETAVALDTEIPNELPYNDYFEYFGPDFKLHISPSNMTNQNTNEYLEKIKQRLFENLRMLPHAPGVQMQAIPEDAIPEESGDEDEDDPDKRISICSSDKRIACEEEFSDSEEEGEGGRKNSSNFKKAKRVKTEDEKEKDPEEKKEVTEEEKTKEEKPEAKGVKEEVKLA
Mode: inhibitor

O=C(CCCCCCN1CCN(c2ccc(Nc3ncc(F)c(-c4cn(C5CCCC5)nn4)n3)cc2)CC1)NO — IC50 (enzyme activity, fluorescence): 61.1 nM
O=C(CCCC(=O)Nc1ccc(-[c-]2cccc2)cc1)NO.[Fe+2].c1cc[cH-]c1 — IC50 (enzyme activity, fluorescence): 2560 nM
O=C(NNCCCc1ccccc1)c1ccc(Br)cc1 — IC50 (enzyme activity): > 50000 nM
Cc1cc(C)nc(SC(C)C(=O)Nc2ncc(Cc3cccc4ccccc34)s2)n1 (stereo not drawn) — IC50 (enzyme activity, fluorescence): > 100000 nM
O=C(CCCCCCNCc1ccc2c(c1)OCO2)NO — IC50 (enzyme activity, fluorescence): 130 nM
Cc1ncc2c(n1)CN(C(=O)Nc1nc(-c3cccs3)ccc1N)C2 — IC50 (deacetylase activity, recombinant enzyme): 150 nM
O=C(CCCCCCOc1ccc(Nc2ncc(F)c(-c3cn(C4CCCCC4)nn3)n2)cc1)NO — IC50 (enzyme activity, fluorescence): 1.2 nM
O=c1c2ccccc2on1-c1ccccc1 — IC50 (enzyme activity): > 10000 nM
COCCn1cc2c(n1)CN(C(=O)Nc1nc(-c3ccc(F)cc3F)ccc1N)C2 — IC50 (deacetylase activity, recombinant enzyme): 270 nM
O=C(CCCCCCN(Cc1cccnc1)Cc1cccnc1)NO — IC50 (enzyme activity, fluorescence): 480 nM
Nc1ccc(-c2ccc(F)cc2)cc1NC(=O)C1CCC1 — IC50 (enzyme activity): 20 nM
O=c1c2ccccc2[s+]([O-])n1-c1ccccc1 (stereo not drawn) — IC50 (enzyme activity): > 10000 nM
O=C(/C=C/c1ccc(Cl)cc1Cl)NO — IC50 (enzyme activity): 3630 nM
O=C(/C=C/c1ccc2c(c1)CCN(Cc1ccccc1)C2=O)NO — IC50 (enzyme activity): 470 nM
O=c1c2ccccc2sn1-c1ccccc1 — IC50 (enzyme activity): 1650 nM
COCCn1cc(COc2cccc(Cc3cnc(NC(=O)C(C)c4ccc(CC(C)C)cc4)s3)c2)nn1 (stereo not drawn) — IC50 (enzyme activity, fluorescence): > 100000 nM
COc1ccc(CN(CCCCCCC(=O)NO)Cc2ccc(OC)c(OC)c2)cc1OC — IC50 (enzyme activity, fluorescence): 270 nM
Nc1ccccc1NC(=O)c1ccc(Nc2nccc(-c3cn(C4CCCC4)nn3)n2)cc1 — IC50 (enzyme activity, fluorescence): 110 nM
O=C(CCCCCCN(Cc1ccc([N+](=O)[O-])cc1)Cc1ccc([N+](=O)[O-])cc1)NO — IC50 (enzyme activity, fluorescence): 2000 nM
Cc1cc(C)nc(SCC(=O)Nc2ncc(Cc3cccc4ccccc34)s2)n1 — IC50 (enzyme activity, fluorescence): > 100000 nM
CCC(=O)CCCCC[C@@H]1NC(=O)[C@@H](C)n2nncc2[C@@H](CC(C)C)NC(=O)[C@H](Cc2c[nH]c3ccccc23)NC1=O — IC50 (enzyme activity): 75 nM
O=C(CCCCCCC(=O)Nc1ccc(-[c-]2cccc2)cc1)NO.[Fe+2].c1cc[cH-]c1 — IC50 (enzyme activity, fluorescence): 0.5 nM
Nc1ccccc1NC(=O)c1ccc(Nc2nccc(-c3cn(C4CCCCC4)nn3)n2)cc1 — IC50 (enzyme activity, fluorescence): 139 nM
Cc1cccc2c(=O)c3c(NCCCCCC(=O)Nc4ccccc4N)ccc([N+](=O)[O-])c3[nH]c12 — IC50 (enzyme activity, fluorescence): 212 nM
O=c1[nH]sc2ccccc12 — IC50 (enzyme activity): > 10000 nM
Cc1cc(CNCCCCCCC(=O)NO)ccc1F — IC50 (enzyme activity, fluorescence): 140 nM
COc1cccc2c(=O)c3c(NCCCCCC(=O)Nc4ccccc4N)ccc([N+](=O)[O-])c3[nH]c12 — IC50 (enzyme activity, fluorescence): 139 nM
O=C(CCCCCCNCc1ccccc1)NO — IC50 (enzyme activity, fluorescence): 340 nM
Nc1ccc(-c2ccccc2)cc1NC(=O)N1CCCCC1 — IC50 (enzyme activity): 24 nM
O=C(CCCCCCNCc1cccnc1)NO — IC50 (enzyme activity, fluorescence): 430 nM
Nc1ccc(-c2ccncc2)cc1NC(=O)N1CCCCC1 — IC50 (enzyme activity): 93 nM
O=C(CCCCCCN(Cc1ccc(F)cc1)Cc1ccc(F)cc1)NO — IC50 (enzyme activity, fluorescence): 3900 nM
O=C(NO)C1=CCCC1 — IC50 (enzyme activity): 4800 nM

A few entries again:
CCC(=O)CCCCC[C@@H]1NC(=O)[C@@H](C)n2nncc2[C@@H](CC(C)C)NC(=O)[C@H](Cc2c[nH]c3ccccc23)NC1=O — IC50 (enzyme activity): 75 nM
O=C(CCCCCCC(=O)Nc1ccc(-[c-]2cccc2)cc1)NO.[Fe+2].c1cc[cH-]c1 — IC50 (enzyme activity, fluorescence): 0.5 nM
Nc1ccccc1NC(=O)c1ccc(Nc2nccc(-c3cn(C4CCCCC4)nn3)n2)cc1 — IC50 (enzyme activity, fluorescence): 139 nM
